Experimental data collected from several papers.
Each numbered part is a random draw from the data of one study; scales do not carry over between parts.
Chain of UniProt Q06187 (whole entry, looked up): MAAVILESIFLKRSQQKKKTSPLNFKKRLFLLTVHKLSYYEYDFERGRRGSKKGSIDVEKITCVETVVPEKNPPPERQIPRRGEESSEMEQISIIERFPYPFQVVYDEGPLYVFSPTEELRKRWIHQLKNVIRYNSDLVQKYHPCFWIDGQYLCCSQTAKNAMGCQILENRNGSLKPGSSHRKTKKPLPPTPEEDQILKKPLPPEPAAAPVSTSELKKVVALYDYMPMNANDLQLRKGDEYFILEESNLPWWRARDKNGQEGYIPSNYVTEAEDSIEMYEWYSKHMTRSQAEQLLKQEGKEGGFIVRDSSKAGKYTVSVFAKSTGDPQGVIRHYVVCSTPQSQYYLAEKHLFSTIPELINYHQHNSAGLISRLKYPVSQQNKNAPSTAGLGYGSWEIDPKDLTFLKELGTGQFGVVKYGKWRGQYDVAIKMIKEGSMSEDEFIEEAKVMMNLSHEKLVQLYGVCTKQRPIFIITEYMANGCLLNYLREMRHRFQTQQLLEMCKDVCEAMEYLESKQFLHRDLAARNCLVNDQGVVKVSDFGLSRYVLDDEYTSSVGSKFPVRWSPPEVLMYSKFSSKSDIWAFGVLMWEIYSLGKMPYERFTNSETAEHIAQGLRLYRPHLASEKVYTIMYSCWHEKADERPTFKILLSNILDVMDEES
Chain of UniProt Q13976 (whole entry, looked up): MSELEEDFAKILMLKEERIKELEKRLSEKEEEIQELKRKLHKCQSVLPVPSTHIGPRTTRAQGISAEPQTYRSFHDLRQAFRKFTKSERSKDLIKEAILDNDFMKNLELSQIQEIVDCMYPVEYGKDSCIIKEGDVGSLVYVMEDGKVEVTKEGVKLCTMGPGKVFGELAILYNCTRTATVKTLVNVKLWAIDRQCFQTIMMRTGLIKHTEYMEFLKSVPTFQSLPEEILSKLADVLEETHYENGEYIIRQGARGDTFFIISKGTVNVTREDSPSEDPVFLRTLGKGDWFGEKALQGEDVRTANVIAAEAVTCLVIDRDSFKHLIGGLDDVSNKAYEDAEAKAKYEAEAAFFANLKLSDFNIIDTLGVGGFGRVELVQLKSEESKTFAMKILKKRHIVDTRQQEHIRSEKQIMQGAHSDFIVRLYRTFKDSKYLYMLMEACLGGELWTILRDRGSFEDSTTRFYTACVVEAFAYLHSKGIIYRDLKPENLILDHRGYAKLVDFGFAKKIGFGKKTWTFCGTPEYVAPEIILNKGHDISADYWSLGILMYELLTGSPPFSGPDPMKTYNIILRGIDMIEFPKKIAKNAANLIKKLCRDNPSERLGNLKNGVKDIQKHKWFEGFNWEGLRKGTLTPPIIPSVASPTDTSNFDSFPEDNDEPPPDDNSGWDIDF
Chain of UniProt O43353 (whole entry, looked up): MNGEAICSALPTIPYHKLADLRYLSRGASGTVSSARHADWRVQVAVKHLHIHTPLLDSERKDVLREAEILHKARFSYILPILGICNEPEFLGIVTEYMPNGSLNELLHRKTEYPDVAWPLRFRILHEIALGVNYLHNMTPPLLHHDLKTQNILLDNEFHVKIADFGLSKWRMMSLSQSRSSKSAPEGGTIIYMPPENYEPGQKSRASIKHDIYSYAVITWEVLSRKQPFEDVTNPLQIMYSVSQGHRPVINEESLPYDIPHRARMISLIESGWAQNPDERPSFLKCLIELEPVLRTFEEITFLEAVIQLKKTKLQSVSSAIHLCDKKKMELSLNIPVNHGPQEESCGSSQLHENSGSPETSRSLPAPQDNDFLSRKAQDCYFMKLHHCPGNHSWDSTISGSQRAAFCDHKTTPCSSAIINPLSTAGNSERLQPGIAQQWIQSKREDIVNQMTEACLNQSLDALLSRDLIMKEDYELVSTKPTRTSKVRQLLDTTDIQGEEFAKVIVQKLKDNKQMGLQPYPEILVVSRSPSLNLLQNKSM
Chain of UniProt P51957 (whole entry, looked up): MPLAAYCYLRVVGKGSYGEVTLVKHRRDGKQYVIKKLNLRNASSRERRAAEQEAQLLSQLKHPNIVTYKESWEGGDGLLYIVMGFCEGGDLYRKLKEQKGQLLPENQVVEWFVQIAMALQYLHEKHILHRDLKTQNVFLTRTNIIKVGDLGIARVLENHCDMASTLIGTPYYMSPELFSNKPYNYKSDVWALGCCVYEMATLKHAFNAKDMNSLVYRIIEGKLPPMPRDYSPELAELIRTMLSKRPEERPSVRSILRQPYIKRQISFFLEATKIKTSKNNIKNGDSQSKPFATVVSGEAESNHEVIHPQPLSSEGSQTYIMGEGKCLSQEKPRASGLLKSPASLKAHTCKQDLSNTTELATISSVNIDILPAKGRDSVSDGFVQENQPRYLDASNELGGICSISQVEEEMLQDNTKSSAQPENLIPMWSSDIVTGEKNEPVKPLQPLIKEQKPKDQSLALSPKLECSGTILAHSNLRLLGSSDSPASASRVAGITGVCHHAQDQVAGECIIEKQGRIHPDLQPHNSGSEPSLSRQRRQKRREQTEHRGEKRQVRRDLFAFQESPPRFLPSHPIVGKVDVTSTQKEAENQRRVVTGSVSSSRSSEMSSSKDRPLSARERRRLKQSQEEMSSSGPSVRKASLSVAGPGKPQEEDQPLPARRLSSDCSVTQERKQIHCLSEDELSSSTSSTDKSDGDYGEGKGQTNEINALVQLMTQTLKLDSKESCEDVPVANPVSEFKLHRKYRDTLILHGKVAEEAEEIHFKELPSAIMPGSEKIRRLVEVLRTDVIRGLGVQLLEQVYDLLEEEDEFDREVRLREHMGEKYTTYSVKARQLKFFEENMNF
Chain of UniProt Q9Y243 (whole entry, looked up): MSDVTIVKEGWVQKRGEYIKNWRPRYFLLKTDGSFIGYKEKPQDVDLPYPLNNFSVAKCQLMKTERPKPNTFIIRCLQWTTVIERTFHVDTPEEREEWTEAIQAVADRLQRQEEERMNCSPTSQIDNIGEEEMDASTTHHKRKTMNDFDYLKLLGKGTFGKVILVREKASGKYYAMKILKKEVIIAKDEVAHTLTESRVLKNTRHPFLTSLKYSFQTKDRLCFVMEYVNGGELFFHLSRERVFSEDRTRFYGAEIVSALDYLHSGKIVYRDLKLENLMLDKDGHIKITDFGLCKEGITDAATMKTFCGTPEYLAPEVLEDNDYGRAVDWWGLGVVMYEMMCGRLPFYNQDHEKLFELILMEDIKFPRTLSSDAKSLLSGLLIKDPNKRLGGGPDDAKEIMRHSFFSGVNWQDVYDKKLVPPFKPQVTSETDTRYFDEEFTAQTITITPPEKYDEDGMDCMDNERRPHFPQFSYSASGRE
Chain of UniProt Q16659 (whole entry, looked up): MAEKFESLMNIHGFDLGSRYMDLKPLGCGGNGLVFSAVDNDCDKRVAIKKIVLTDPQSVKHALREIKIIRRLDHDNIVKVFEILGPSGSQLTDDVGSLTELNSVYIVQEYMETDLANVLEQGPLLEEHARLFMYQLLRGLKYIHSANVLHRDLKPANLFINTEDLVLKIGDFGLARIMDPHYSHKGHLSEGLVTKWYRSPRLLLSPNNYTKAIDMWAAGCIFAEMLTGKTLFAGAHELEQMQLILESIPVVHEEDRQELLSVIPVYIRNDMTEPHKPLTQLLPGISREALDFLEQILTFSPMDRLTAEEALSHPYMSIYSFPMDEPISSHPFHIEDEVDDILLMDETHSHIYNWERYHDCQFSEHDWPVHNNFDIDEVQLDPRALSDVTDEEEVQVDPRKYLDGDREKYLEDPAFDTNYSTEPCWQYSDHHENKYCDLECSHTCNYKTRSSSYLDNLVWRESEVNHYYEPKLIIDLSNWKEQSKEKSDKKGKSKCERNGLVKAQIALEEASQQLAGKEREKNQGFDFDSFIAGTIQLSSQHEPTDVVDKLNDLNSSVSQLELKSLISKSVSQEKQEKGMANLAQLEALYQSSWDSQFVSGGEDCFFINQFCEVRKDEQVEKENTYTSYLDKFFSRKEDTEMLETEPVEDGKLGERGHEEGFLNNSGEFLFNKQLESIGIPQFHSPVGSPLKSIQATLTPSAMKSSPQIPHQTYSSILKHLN
Chain of UniProt P27361 (whole entry, looked up): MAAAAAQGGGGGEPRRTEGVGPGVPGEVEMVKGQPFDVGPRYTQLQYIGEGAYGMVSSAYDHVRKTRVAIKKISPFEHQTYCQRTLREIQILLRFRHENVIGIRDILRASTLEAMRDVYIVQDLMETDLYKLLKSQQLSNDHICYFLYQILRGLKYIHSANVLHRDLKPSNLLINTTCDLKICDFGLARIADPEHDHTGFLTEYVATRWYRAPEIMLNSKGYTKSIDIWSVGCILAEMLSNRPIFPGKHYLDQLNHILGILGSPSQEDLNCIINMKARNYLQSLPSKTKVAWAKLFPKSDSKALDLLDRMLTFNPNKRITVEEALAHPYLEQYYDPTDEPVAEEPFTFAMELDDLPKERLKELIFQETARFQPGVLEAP
Chain of UniProt Q9HBH9 (whole entry, looked up): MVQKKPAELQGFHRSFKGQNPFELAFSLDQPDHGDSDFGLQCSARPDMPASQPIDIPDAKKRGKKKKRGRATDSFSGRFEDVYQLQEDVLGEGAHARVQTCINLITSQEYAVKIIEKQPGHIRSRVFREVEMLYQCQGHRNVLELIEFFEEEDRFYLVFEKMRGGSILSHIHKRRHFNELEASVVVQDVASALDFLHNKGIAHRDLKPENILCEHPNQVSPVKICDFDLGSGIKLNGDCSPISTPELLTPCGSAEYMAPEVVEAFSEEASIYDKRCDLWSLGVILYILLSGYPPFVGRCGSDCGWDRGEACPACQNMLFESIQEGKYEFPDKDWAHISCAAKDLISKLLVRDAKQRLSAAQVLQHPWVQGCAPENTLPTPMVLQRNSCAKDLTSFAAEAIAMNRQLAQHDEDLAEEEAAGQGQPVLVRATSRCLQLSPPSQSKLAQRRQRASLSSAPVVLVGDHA

Study 1 — host: mouse; sample: microsomes or S9; tested at: 2 µM; time: 0.5 h
SMILES | remaining compound [%]
Fc1cc2nc(-c3cnc(-c4cnccn4)s3)[nH]c2cc1F | 0.893
O=S1(=O)N=C(N(CCc2ccccc2)Cc2ccccc2)c2ccccc21 | 1.3
O=C(CCn1[nH]c(=O)c2ccccc2c1=O)NN(Cc1ccccc1)Cc1ccccc1 | 32.8
c1ccc(OCC2=NN=C(COc3ccccc3)NN2)cc1 | 69.7
COC(C)(C)c1noc(-c2ccc(=O)n(C)n2)n1 | 77.2
CN(C)c1ccc(-c2nc3n(c2NC(C)(C)CC(C)(C)C)CCNC3)cc1 | 9.89
CCn1cnc2c(Nc3ccc(OC)c(Cl)c3)nc(Cl)nc21 | 0
CC(C)(C)OC(=O)N[C@@H](CC(=O)N1Cc2ccccc2CN1C(=O)OCc1ccccc1)Cc1cc(F)c(F)cc1F | < 1
O=C(NC1CCCCC1)c1cnn2c(=O)cc(-c3ccc(F)cc3F)[nH]c12 | 17.3
CC(C)(C)/C(=C\n1ccnc1)c1ccc(C(C)(C)C)cc1Cl | 34.5
c1ccc(-c2oc3ncn4ncnc4c3c2-c2ccccc2)cc1 | 81.8
CCOc1cc(=O)n2c(c1C(=O)Nc1ccccc1C(=O)OC)CCCC2 | < 1
CCOc1ccc(Nc2c(-c3cccc(O)c3)nc3ccccn23)cc1 | 0.122
COc1cccc(NC(=O)Cn2cnc3c(sc4nc5c(cc43)COC(C)(C)C5)c2=O)c1 | 87.4
Cc1nc2nc(CC(=O)N3CCC(C)CC3)nn2c(C)c1Cl | 3.75
Cc1cc2c3c(c1)C1(NC(=O)c4ccccc4N1)C(=O)N3C1(CCCCCC1)CC2(C)C (stereo not drawn) | 16.8
CCc1ccc(/N=c2\ncc3c([nH]2)CC(c2ccc(OC)cc2)CC3=O)cc1 (stereo not drawn) | 95.1

Study 2 — technique: competition with immobilised ligand; tested at: 1 µM
SMILES: COc1cc(-c2cn(C3CCc4c(F)cccc4N(CC(F)(F)F)C3=O)nn2)ccc1-n1cnc(C)c1 (stereo not drawn)
target | read-out | remaining binding [%]
Cyclin-dependent kinase 7 (CDK7, Homo sapiens, UniProt P50613) | cell-free assay | 100
Mitogen-activated protein kinase 6 (MAPK6, Homo sapiens, UniProt Q16659) | cell-free assay | 100
Serine/threonine-protein kinase PRP4 homolog (PRPF4B, Homo sapiens, UniProt Q13523) | cell-free assay | 100
Serine/threonine-protein kinase 17B (STK17B, Homo sapiens, UniProt O94768) | cell-free assay | 99
Mitogen-activated protein kinase 3 (MAPK3, Homo sapiens, UniProt P27361) | cell-free assay | 100
Phosphatidylinositol 4,5-bisphosphate 3-kinase catalytic subunit alpha isoform (PIK3CA, Homo sapiens, UniProt P42336, E545A) | cell-free assay | 100
Bone morphogenetic protein receptor type-1A (BMPR1A, Homo sapiens, UniProt P36894) | binding | 100
Serine/threonine-protein kinase B-raf (BRAF, Homo sapiens, UniProt P15056, V600E) | cell-free assay | 100
Mitogen-activated protein kinase 4 (MAPK4, Homo sapiens, UniProt P31152) | cell-free assay | 89
Ankyrin repeat and protein kinase domain-containing protein 1 (ANKK1, Homo sapiens, UniProt Q8NFD2) | cell-free assay | 100
Glycogen synthase kinase-3 alpha (GSK3A, Homo sapiens, UniProt P49840) | cell-free assay | 100
Vascular endothelial growth factor receptor 3 (FLT4, Homo sapiens, UniProt P35916) | cell-free assay | 100
Serine/threonine-protein kinase Sgk1 (SGK1, Homo sapiens, UniProt O00141) | cell-free assay | 90
Cyclin-dependent kinase 11B (CDK11B, Homo sapiens, UniProt P21127) | cell-free assay | 95
Receptor-interacting serine/threonine-protein kinase 2 (RIPK2, Homo sapiens, UniProt O43353) | cell-free assay | 100
Phosphatidylinositol 4-phosphate 5-kinase type-1 alpha (PIP5K1A, Homo sapiens, UniProt Q99755) | cell-free assay | 100
Phosphatidylinositol 4-kinase beta (PI4KB, Homo sapiens, UniProt Q9UBF8) | cell-free assay | 79
Activin receptor type-2B (ACVR2B, Homo sapiens, UniProt Q13705) | cell-free assay | 100
Phosphatidylinositol 4,5-bisphosphate 3-kinase catalytic subunit beta isoform (PIK3CB, Homo sapiens, UniProt P42338) | cell-free assay | 100

Study 3 — SMILES: COc1cc2ncc(-c3ccccc3)nc2cc1OC; read-out: enzyme activity; action: inhibitor; tested at: 0.5 µM; relative to: control
target | remaining activity [%]
Casein kinase I isoform alpha (CSNK1A1, Homo sapiens, UniProt P48729) | 100
Protein kinase C iota type (PRKCI, Homo sapiens, UniProt P41743) | 82.1
Tyrosine-protein kinase Lyn (LYN, Homo sapiens, UniProt P07948) | 90.4
Mitogen-activated protein kinase 13 (MAPK13, Homo sapiens, UniProt O15264) | 89.6
Serine/threonine-protein kinase Nek4 (NEK4, Homo sapiens, UniProt P51957) | 101
Mitogen-activated protein kinase kinase kinase 10 (MAP3K10, Homo sapiens, UniProt Q02779) | 105
Ephrin type-A receptor 5 (EPHA5, Homo sapiens, UniProt P54756) | 99.9
MAP kinase-interacting serine/threonine-protein kinase 2 (MKNK2, Homo sapiens, UniProt Q9HBH9) | 86.3
Serine/threonine-protein kinase 38 (STK38, Homo sapiens, UniProt Q15208) | 95.9
Mitogen-activated protein kinase kinase kinase kinase 2 (MAP4K2, Homo sapiens, UniProt Q12851) | 99.2
Mitogen-activated protein kinase 12 (MAPK12, Homo sapiens, UniProt P53778) | 95.5
Protein kinase C delta type (PRKCD, Homo sapiens, UniProt Q05655) | 82.2
Dual specificity mitogen-activated protein kinase kinase 6 (MAP2K6, Homo sapiens, UniProt P52564) | 94.9
cGMP-dependent protein kinase 1 (PRKG1, Homo sapiens, UniProt Q13976) | 77.1
Interleukin-1 receptor-associated kinase 4 (IRAK4, Homo sapiens, UniProt Q9NWZ3) | 90.6
Tyrosine-protein kinase BTK (BTK, Homo sapiens, UniProt Q06187) | 98
Cyclin-dependent kinase 9, with cyclin T1 (CDK9, Homo sapiens, UniProt P50750) | 83.2
Leucine-rich repeat serine/threonine-protein kinase 2 (LRRK2, Homo sapiens, UniProt Q5S007) | 84.9
Mast/stem cell growth factor receptor Kit (KIT, Homo sapiens, UniProt P10721) | 67.3
RAC-gamma serine/threonine-protein kinase (AKT3, Homo sapiens, UniProt Q9Y243) | 94.5
Serine/threonine-protein kinase Chk1 (CHEK1, Homo sapiens, UniProt O14757) | 94.7

Study 4 — host: idiopathic pulmonary fibrosis patients
SMILES: CC(C)n1cnc(-c2ccc(F)cc2)c1-c1ncc(C(=O)Nc2ccc(N3CCN(C)CC3)cc2)[nH]1
technique | measured | dose | setting | adverse event incidence [%]
phase 2a trial | chronic gastritis | 60 mg once daily | grade 4 | 0
phase 2a trial | allergic conjunctivitis | 60 mg once daily | grade 1 | 0
phase 2a trial | weight decreased | 30 mg once daily | grade 2 | 0
phase 2a trial | chronic gastritis | dose not given | grade 3, all arms pooled | 0
phase 2a trial | appendicitis | 60 mg once daily | grade 4 | 0
phase 2a trial | hydroxybutyrate dehydrogenase increased | 60 mg once daily | grade 5 | 0
phase 2a trial | chronic gastritis | 30 mg once daily | grade 2 | 0
phase 2a trial | drug eruption | dose not given | grade 4, all arms pooled | 0
phase 2a trial | infection | 60 mg once daily | grade 4 | 0
phase 2a trial | arthritis | dose not given | grade 3, all arms pooled | 0
– | – | 30 mg twice daily | any event without SOC | 90
phase 2a trial | drug eruption | 30 mg once daily | grade 2 | 0

Excerpt of the above (study 3):
target | remaining activity [%]
Cyclin-dependent kinase 9, with cyclin T1 (CDK9, Homo sapiens, UniProt P50750) | 83.2
Casein kinase I isoform alpha (CSNK1A1, Homo sapiens, UniProt P48729) | 100
cGMP-dependent protein kinase 1 (PRKG1, Homo sapiens, UniProt Q13976) | 77.1
RAC-gamma serine/threonine-protein kinase (AKT3, Homo sapiens, UniProt Q9Y243) | 94.5
Mitogen-activated protein kinase 12 (MAPK12, Homo sapiens, UniProt P53778) | 95.5
Tyrosine-protein kinase Lyn (LYN, Homo sapiens, UniProt P07948) | 90.4
